Measured values from different studies.
Each numbered part is a random draw from the data of one study; scales do not carry over between parts. Values joined by “and” are separate records of one study, mostly repeats; a detail may differ.

Set 1 — cell line: HEK-293T/ACE2; read-out: pseudovirus infection; organism: VSV pseudotyped with SARS-CoV-2 spike; concentration: concentration not given; relative to: vehicle-treated
For `COc1cc2nccc(Oc3ccc(NC(=O)C4(C(=O)Nc5ccc(F)cc5)CC4)cc3)c2cc1OC.O=C(O)C[C@H](O)C(=O)O`, the GFP-positive cells was 75.2%.
`Cc1[nH]c2ccccc2c1CCNCc1ccc(/C=C/C(=O)NO)cc1` gave a GFP-positive cells of 43.5%.
With `CCCCCCCCc1ccc(CCC(N)(CO)CO)cc1.Cl` the GFP-positive cells was 38.4%.

Set 2 — mode: inhibitor; concentration: 20 µM
Target: Replicase polyprotein 1ab, nsp13 helicase (rep, Severe acute respiratory syndrome coronavirus 2, UniProt P0DTD1)
`N[C@@H](C(=O)O)c1ccc(O)c(C(=O)O)c1` has an inhibition of 5.4%.
The inhibition of `NC(CO)C(=O)NNCc1ccc(O)c(O)c1O` (centres unmarked) is reported as 30.9%.
`Cc1nn(C)c2nc(NNC(=O)Nc3cc(Cl)nc(Cl)c3)cc(C(C)C)c12` has an inhibition of 8.4%.
`Cc1cc(NCCO)nc(-c2ccc(Br)cc2)n1` gave an inhibition of 7.59%.
`COc1cc(NC(=O)c2cccc(-n3cc(NC(=O)Nc4cccc(C)c4)cn3)c2)cc(OC)c1OC` has an inhibition of 1.85%.
With `CCCCCCC[N+](CC)(CC)CCCCc1ccc(Cl)cc1` the inhibition was -1.39%.
`CO[C@@H]1[C@H](O)[C@@H](CO)O[C@H]1n1cnc2c(NC3CCCCC3)ncnc21` has an inhibition of 4.79%.
For `COc1cc2c(cc1-c1c(C)noc1C)ncc1[nH]c(=O)n([C@H](C)c3ccccn3)c12`, the inhibition was 0.69%.
For `C[C@H]1C[C@H]2[C@@H]3CCC4=CC(=O)C=C[C@]4(C)[C@H]3C(=O)C[C@]2(C)[C@@]1(O)C(=O)CO`, the inhibition was 3.42%.
With `COc1cc(C[C@H]2C(=O)OC[C@@H]2Cc2ccc(OC)c(OC)c2)ccc1O` the inhibition was 4.85%.

Set 3 — read-out: enzyme activity; concentration: 20 µM; notes: with DTT
Target: Replicase polyprotein 1ab, main protease (rep, Severe acute respiratory syndrome coronavirus 2, UniProt P0DTD1)
With `NC[C@@H]1O[C@H](C23CC4CC(CC(C4)C2)C3)Cc2c1ccc(O)c2O` the inhibition was -14%.
`Oc1cc2c(cc1C(c1ccc(C(F)(F)F)cc1)N1CCOCC1)OCO2` (centres unmarked) has an inhibition of 98.6%.
With `CCOc1ccc(Nc2nc(-c3c(C)nc4ccccn34)cs2)cc1` the inhibition was -23.7%.

Other studies, line by line
The maximum response of `COc1cccc(-c2ccccc2NC(=O)C2CCN(Cc3ccccc3F)CC2)c1` is reported as 61.3% (SARS-CoV-2; cytopathic effect; USA_WA1/2020; retest, 8-point, duplicates).
With `CC[C@H](C)[C@H](NC(=O)[C@H](CC(C)C)NC(=O)[C@H](Cc1c[nH]c2ccccc12)NC(=O)[C@H](CCC(N)=O)NC(=O)[C@@H](NC(=O)[C@H](Cc1ccccc1)NC(=O)[C@H](C)NC(=O)[C@H](CCCCNC(=O)COCCOCCNC(=O)COCCOCCNC(=O)CC[C@H](NC(=O)CCCCCCCCCCCCCCCCCCC(=O)O)C(=O)O)NC(=O)[C@H](CCC(N)=O)NC(=O)[C@H](C)NC(=O)[C@@H](NC(=O)[C@H](CCCCN)NC(=O)[C@H](CC(=O)O)NC(=O)[C@H](CC(C)C)NC(=O)C(C)(C)NC(=O)[C@@H](NC(=O)[C@H](CO)NC(=O)[C@H](Cc1ccc(O)cc1)NC(=O)[C@H](CC(=O)O)NC(=O)[C@H](CO)NC(=O)[C@@H](NC(=O)[C@H](Cc1ccccc1)NC(=O)[C@@H](NC(=O)CNC(=O)[C@H](CCC(=O)O)NC(=O)C(C)(C)NC(=O)[C@@H](N)Cc1ccc(O)cc1)[C@@H](C)O)[C@@H](C)O)[C@@H](C)CC)[C@@H](C)CC)C(C)C)C(=O)N[C@@H](C)C(=O)NCC(=O)NCC(=O)N1CCC[C@H]1C(=O)N[C@@H](CO)C(=O)N[C@@H](CO)C(=O)NCC(=O)N[C@@H](C)C(=O)N1CCC[C@H]1C(=O)N1CCC[C@H]1C(=O)N1CCC[C@H]1C(=O)N[C@@H](CO)C(N)=O` the cough was 16.7% (healthy human; 0.5 mg, single ascending dose).
The efficacy of `CN(C)CCNC(=O)c1ccc2c(c1)C1(CCN(CC3CC3)C1)CN2Cc1ccccc1` (centres unmarked) is reported as 98% (SARS-CoV-2; cytopathic effect; USA_WA1/2020; retest, 8-point, duplicates).
`CNC(=O)[C@@H](NC(=O)[C@H](CC(C)C)[C@H](O)C(=O)NO)C(C)(C)C` gave a remaining activity of 5.03% and 8.14% and 4.33% (Daboia russelii venom proteases (SVMP); protease activity, inhibitor; GA population; 10 µM, with: azocasein substrate; relative to: venom alone).

Some of these lines once more (set 2):
`CO[C@@H]1[C@H](O)[C@@H](CO)O[C@H]1n1cnc2c(NC3CCCCC3)ncnc21` has an inhibition of 4.79%.
For `COc1cc2c(cc1-c1c(C)noc1C)ncc1[nH]c(=O)n([C@H](C)c3ccccn3)c12`, the inhibition was 0.69%.
